{"data": "Assay results gathered from unrelated publications", "note": "Each line is one published result; not all experiments were run side by side."}
{"SMILES": "COC(=O)c1ccccc1-c1c2ccc(=O)cc-2oc2c1ccc1cccc(O)c12", "system": "12.5 mM aqueous NaOH", "conditions": "pH 12.1, 10% DMSO", "emission maximum [nm]": 760}
{"SMILES": "CCCCN1C(=O)c2cccc3c(NCCCCCCCCN4CCOCC4)ccc(c23)C1=O", "system": "toluene", "emission maximum [nm]": 503}
{"SMILES": "Nc1ccc2cc(/C=C/C(=O)c3ccc(O)cc3)ccc2c1", "system": "toluene", "conditions": "20 °C", "emission maximum [nm]": 512}
{"SMILES": "CC1(C)C(/C=C/C2=C(Cl)C(=C/C=C3/N(CCCCCC(=O)O)c4ccccc4C3(C)C)/C[N+](C)(C)C2)=[N+](CCCCCC(=O)O)c2ccccc21", "system": "methanol", "emission maximum [nm]": 781}
{"SMILES": "CCCCN1C(=O)c2cccc3c(NCCCCN4CCOCC4)ccc(c23)C1=O", "system": "chloroform", "emission maximum [nm]": 498}
{"SMILES": "Nc1cccc2ccc(/C=C/C(=O)c3ccc(C(F)(F)F)cc3)cc12", "system": "toluene", "conditions": "20 °C", "emission maximum [nm]": 567}
{"SMILES": "CN1CCN(c2ccc(/C=C/c3cc(=O)cc(/C=C/c4ccc(N5CCN(C)CC5)cc4)o3)cc2)CC1", "system": "acetonitrile/water 1:19 v/v", "conditions": "10 µM, 298 K, aggregate nanoparticle suspension", "emission maximum [nm]": 572}
{"SMILES": "COC(=O)c1ccccc1-c1c2ccc(=[N+](C)C)cc-2oc2c1ccc1cccc(O)c12", "system": "12.5 mM aqueous NaOH", "conditions": "pH 12.1, 10% DMSO", "emission maximum [nm]": 780}
{"SMILES": "O=c1cc(/C=C/c2ccc(N3CCOCC3)cc2)oc(/C=C/c2ccc(N3CCOCC3)cc2)c1", "system": "acetonitrile/water 1:19 v/v", "conditions": "10 µM, 298 K, aggregate nanoparticle suspension", "emission maximum [nm]": 557}
{"SMILES": "CCCCN1C(=O)c2cccc3c(NCCCN4CCOCC4)ccc(c23)C1=O", "system": "chloroform", "emission maximum [nm]": 503}
{"SMILES": "CN(C)c1ccc(/C=C/c2cc(=O)cc(/C=C/c3ccc(N(C)C)cc3)o2)cc1", "system": "acetonitrile/water 1:19 v/v", "conditions": "10 µM, 298 K, aggregate nanoparticle suspension", "emission maximum [nm]": 602}
{"SMILES": "CCCCN1C(=O)c2cccc3c(NCCCCCCCCCCN4CCOCC4)ccc(c23)C1=O", "system": "methanol", "emission maximum [nm]": 538}
{"note": "Some of these lines once more:"}
{"SMILES": "CCCCN1C(=O)c2cccc3c(NCCCCN4CCOCC4)ccc(c23)C1=O", "system": "chloroform", "emission maximum [nm]": 498}
